Experimental data collected from several papers.
A part holds a random share of what one study measured. Several values in a cell are separate wells, animals, samples, runs or records.
UniProt Q99720, sequence (whole entry, looked up): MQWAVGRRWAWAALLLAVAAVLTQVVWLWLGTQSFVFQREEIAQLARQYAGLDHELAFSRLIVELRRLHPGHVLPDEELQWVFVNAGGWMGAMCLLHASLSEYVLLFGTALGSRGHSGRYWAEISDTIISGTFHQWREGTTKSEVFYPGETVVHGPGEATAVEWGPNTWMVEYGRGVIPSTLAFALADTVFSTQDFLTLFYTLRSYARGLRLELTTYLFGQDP
UniProt P28222, sequence (whole entry, looked up): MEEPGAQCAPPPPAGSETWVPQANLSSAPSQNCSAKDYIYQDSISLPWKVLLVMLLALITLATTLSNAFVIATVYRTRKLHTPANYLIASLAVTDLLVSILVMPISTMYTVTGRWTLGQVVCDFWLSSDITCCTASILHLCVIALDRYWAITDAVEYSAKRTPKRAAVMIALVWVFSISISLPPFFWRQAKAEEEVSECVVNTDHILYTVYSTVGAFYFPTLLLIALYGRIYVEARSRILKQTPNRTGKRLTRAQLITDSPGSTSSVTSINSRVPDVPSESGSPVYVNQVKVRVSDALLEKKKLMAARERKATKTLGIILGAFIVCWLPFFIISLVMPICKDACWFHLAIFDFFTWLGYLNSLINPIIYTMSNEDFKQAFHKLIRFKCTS
UniProt P50406, sequence (whole entry, looked up): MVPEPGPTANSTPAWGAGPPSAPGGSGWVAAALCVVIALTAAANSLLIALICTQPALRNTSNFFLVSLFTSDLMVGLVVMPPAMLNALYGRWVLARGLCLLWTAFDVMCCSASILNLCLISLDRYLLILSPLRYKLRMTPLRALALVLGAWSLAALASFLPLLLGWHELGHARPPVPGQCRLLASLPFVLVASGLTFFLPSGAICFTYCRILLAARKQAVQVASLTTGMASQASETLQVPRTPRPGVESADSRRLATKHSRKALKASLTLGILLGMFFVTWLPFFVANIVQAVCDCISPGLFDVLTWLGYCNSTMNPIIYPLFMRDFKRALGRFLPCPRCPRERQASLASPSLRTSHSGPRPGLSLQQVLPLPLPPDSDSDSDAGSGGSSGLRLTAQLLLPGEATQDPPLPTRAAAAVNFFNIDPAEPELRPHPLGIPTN
UniProt Q5BJF2, sequence (whole entry, looked up): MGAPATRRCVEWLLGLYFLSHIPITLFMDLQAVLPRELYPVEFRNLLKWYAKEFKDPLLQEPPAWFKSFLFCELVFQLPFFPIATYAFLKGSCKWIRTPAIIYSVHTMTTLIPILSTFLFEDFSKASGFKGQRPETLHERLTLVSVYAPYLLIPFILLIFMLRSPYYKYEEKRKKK
UniProt P35348, sequence (whole entry, looked up): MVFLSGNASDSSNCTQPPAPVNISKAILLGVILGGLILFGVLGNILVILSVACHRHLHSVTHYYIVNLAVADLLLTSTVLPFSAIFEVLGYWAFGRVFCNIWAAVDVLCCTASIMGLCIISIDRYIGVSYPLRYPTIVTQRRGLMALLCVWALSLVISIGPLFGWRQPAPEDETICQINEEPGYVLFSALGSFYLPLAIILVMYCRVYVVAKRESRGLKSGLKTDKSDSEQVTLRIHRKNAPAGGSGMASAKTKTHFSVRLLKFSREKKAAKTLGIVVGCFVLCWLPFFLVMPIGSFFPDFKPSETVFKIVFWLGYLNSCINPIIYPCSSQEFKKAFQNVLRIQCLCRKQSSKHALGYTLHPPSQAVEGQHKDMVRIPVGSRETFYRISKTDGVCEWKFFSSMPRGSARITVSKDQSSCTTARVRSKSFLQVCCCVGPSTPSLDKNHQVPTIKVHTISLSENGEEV
UniProt P28221, sequence (whole entry, looked up): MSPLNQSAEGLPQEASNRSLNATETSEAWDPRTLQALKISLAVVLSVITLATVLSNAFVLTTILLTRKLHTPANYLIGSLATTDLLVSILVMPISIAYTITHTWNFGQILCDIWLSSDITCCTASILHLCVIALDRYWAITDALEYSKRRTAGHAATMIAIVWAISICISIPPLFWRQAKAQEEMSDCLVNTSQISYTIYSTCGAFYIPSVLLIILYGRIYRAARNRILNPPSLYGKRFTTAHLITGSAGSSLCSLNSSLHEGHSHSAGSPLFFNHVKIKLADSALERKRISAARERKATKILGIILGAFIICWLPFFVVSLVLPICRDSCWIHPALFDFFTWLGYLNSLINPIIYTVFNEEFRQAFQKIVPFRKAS
UniProt P28566, sequence (whole entry, looked up): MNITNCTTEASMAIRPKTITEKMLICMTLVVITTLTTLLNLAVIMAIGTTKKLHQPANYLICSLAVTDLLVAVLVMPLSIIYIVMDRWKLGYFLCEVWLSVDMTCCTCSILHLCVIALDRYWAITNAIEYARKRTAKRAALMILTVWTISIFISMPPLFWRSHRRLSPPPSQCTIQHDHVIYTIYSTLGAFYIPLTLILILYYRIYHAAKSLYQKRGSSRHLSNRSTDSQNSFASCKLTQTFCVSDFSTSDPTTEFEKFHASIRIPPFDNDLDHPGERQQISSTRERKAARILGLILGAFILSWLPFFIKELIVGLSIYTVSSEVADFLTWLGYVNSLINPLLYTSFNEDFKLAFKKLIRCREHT

Set 1
Target: DNA polymerase theta, ATPase domain (POLQ, Homo sapiens, UniProt O75417)
UniProt O75417, sequence (whole entry, unmodified, looked up): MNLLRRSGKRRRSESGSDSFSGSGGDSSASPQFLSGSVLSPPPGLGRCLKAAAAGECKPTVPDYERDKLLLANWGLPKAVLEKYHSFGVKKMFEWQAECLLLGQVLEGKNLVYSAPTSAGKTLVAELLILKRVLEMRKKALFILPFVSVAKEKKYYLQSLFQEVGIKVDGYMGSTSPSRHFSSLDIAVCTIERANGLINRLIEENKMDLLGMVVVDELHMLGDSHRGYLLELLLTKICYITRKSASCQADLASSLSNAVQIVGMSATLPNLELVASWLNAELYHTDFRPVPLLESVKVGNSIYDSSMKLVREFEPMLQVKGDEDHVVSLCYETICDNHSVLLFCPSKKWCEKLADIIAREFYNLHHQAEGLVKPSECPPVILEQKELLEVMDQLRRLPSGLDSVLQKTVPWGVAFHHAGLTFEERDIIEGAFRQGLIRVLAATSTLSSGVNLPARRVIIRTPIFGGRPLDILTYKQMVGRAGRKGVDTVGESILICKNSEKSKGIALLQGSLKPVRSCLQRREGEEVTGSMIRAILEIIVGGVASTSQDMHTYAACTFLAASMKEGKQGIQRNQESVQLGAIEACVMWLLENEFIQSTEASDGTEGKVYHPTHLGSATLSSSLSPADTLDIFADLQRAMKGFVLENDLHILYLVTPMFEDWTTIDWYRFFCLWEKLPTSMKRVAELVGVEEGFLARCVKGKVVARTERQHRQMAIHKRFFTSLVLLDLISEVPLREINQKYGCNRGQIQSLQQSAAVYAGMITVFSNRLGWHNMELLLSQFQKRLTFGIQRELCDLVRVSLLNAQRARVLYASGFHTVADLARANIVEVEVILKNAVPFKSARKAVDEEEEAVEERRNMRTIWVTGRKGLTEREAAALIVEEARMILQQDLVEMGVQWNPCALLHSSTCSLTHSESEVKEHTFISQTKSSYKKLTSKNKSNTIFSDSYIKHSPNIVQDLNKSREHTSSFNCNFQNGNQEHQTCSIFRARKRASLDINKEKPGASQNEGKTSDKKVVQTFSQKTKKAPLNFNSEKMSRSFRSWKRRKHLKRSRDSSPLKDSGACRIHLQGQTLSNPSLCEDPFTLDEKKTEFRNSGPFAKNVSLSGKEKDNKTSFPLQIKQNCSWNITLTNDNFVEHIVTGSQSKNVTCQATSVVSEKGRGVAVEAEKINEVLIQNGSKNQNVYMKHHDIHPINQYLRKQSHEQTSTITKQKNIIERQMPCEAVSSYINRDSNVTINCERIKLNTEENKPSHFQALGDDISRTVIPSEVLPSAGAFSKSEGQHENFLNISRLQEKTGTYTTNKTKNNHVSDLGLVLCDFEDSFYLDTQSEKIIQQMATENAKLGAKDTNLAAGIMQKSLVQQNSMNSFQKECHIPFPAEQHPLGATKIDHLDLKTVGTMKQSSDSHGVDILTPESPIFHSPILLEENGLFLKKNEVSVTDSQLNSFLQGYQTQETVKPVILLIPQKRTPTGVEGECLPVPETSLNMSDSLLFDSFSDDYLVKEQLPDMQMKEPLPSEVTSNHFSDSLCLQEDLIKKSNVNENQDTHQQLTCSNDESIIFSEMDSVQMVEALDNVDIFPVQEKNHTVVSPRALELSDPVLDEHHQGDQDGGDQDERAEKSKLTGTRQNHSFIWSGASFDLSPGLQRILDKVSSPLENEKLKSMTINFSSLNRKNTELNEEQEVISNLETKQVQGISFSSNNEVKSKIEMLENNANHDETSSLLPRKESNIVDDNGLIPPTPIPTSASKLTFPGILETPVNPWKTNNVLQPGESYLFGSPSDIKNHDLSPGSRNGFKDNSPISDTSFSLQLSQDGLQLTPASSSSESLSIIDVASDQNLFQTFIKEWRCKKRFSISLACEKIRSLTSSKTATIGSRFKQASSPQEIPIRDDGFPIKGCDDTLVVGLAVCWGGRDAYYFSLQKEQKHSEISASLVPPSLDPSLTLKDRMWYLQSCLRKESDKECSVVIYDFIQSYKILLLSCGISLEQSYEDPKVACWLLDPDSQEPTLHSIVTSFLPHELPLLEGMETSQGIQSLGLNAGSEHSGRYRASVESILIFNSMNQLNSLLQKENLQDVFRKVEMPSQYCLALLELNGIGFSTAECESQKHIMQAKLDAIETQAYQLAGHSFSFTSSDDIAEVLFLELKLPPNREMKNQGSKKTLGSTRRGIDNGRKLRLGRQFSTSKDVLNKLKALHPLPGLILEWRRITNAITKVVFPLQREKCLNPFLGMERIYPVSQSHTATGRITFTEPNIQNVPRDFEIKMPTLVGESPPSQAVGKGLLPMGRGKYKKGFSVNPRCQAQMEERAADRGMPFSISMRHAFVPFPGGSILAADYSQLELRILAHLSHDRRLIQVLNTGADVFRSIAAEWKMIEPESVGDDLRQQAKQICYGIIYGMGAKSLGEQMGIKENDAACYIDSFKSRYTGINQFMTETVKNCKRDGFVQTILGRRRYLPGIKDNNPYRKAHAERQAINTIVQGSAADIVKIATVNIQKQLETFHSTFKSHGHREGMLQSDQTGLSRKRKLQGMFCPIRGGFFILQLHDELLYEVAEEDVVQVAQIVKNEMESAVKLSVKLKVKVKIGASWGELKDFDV
Observed: enzyme activity
Action: inhibitor
Tested at: 77 µM
Baseline: untreated
The remaining activity of O=C(NOCC1CC1)c1cc(Br)c(F)c(F)c1Nc1ccc(I)cc1Cl is reported as 94.1%.
N[C@@H](COP(=O)(O)O)C(=O)O has a remaining activity of 101%.
C[C@@H]1O[C@@H](O[C@H]2[C@H](Oc3cc(O)c4c(c3)O[C@H](c3ccc(O)cc3)CC4=O)O[C@H](CO)[C@@H](O)[C@@H]2O)[C@H](O)[C@H](O)[C@H]1O gave a remaining activity of 101% and 102%.
The remaining activity of NNC(=O)c1ccncc1 is reported as 92.2% and 96.1%.
CN(C)CCOC(=O)C(c1ccccc1)C1(O)CCCC1 (stereo not shown) gave a remaining activity of 99.7%.
For CN(C)CCCSC(=N)N, the remaining activity was 102%.
CN1CCc2c(c3ccccc3n2Cc2ccc(C(=O)NO)cc2)C1 has a remaining activity of 85.1% and 94.8%.
The remaining activity of Oc1cc2c(cc1O)CN(C(=S)NCCc1ccc(Cl)cc1)CCC2 is reported as 99.8%.
The remaining activity of O=C1NC(=O)c2c1c1c3ccccc3[nH]c1c1[nH]c3cc(Br)ccc3c21 is reported as 120%.
COc1ccc(-c2oc3c(CC=C(C)C)c(O[C@@H]4O[C@H](CO)[C@@H](O)[C@H](O)[C@H]4O)cc(O)c3c(=O)c2O[C@@H]2O[C@@H](C)[C@H](O)[C@@H](O)[C@H]2O)cc1 gave a remaining activity of 94.6%.

Set 2
SMILES: COc1ccc2c(c1)O[C@@H](c1ccc(OC)c(OC)c1)C[C@H]2NC(=O)C1(c2ccc3c(c2)OC(F)(F)O3)CC1
Tested at: 10 µM
Alpha-1A adrenergic receptor (ADRA1A, Homo sapiens, UniProt P35348); binding, radioligand binding — inhibition: -12.5%.
For Sigma non-opioid intracellular receptor 1 (SIGMAR1, Homo sapiens, UniProt Q99720); binding, radioligand binding: inhibition read 53%.
It gave 14.9% for inhibition (Alpha-2A adrenergic receptor (ADRA2A, Homo sapiens, UniProt P08913); binding, radioligand binding).
For 5-hydroxytryptamine receptor 1E (HTR1E, Homo sapiens, UniProt P28566); cell-free assay: inhibition read 1.27%.
The inhibition was -7.27% (D(2) dopamine receptor (DRD2, Homo sapiens, UniProt P14416); binding, radioligand binding).
It gave 6.1% for inhibition (5-hydroxytryptamine receptor 1D (HTR1D, Homo sapiens, UniProt P28221); cell-free assay).
The inhibition was -9.23% (D(3) dopamine receptor (DRD3, Homo sapiens, UniProt P35462); binding, radioligand binding).
It gave 16.1% for inhibition (Muscarinic acetylcholine receptor M5 (CHRM5, Homo sapiens, UniProt P08912); binding, radioligand binding).
Histamine H3 receptor (HRH3, Homo sapiens, UniProt Q9Y5N1); binding, radioligand binding — inhibition: 10.4%.
The inhibition was -1% (5-hydroxytryptamine receptor 1B (HTR1B, Homo sapiens, UniProt P28222); binding, radioligand binding).
The inhibition was -6.5% (D(4) dopamine receptor (DRD4, Homo sapiens, UniProt P21917); binding, radioligand binding).
It gave 85.3% for inhibition (Sigma intracellular receptor 2 (TMEM97, Homo sapiens, UniProt Q5BJF2); binding, radioligand binding).
It gave -15.9% for inhibition (5-hydroxytryptamine receptor 6 (HTR6, Homo sapiens, UniProt P50406); binding, radioligand binding).

Set 3
Cell line: mouse MPNST tumor cells
Method: high-content immunofluorescence imaging
Item: nuclear SOX9
Tested at: 10 µM
Time: 12 h
Notes: mean of 2 replicates
Baseline: DMSO control
Reading: higher = more nuclear SOX9
C1CCC(N=C(NC23CC4CC(CC(C4)C2)C3)N2CCOCC2)CC1 — result for “nuclear SOX9 intensity”: 103 % of DMSO.
For CNC(=O)Nc1ccc2c(c1)CC[C@@]21OC(=O)N(CC(=O)N(Cc2ccc(F)cc2)[C@@H](C)C(F)(F)F)C1=O, “nuclear SOX9 intensity” read 102 % of DMSO and 98.9 % of DMSO.
O=C(/C=C/N1C[C@H]2C[C@@H]1CN2c1ccccn1)c1ccccc1O: “nuclear SOX9 intensity” 96.9 % of DMSO.
Cc1cccc(CN2CCN(C(c3ccccc3)c3ccc(Cl)cc3)CC2)c1 (stereo not shown): “nuclear SOX9 intensity” 134 % of DMSO and 156 % of DMSO.
For CC(C)(C)c1ccc(S(=O)(=O)NCc2ccc(C(=O)Nc3cccnc3)cc2)cc1, “nuclear SOX9 intensity” read 99.8 % of DMSO.
Cc1ccc(CC2(O)CCN(CCOc3ccc(O)cc3)CC2)cc1 — result for “nuclear SOX9 intensity”: 146 % of DMSO.
For NC(=O)[C@@H](CCC(F)(F)F)N(Cc1ccc(-c2ncon2)cc1F)S(=O)(=O)c1ccc(Cl)cc1, “nuclear SOX9 intensity” read 124 % of DMSO.
N#Cc1ccc(-c2ccc(S(=O)(=O)Nc3cccc(N)n3)cc2)cc1 — result for “nuclear SOX9 intensity”: 105 % of DMSO.
Under “nuclear SOX9 intensity”, COc1ccc(NS(=O)(=O)c2ccc(N)cc2)nn1 is recorded as 75 % of DMSO.
C[C@H](Cc1cc2c(c(C(N)=O)c1)N(CCCO)CC2)NCCOc1ccccc1OCC(F)(F)F: “nuclear SOX9 intensity” 102 % of DMSO and 107 % of DMSO.
Under “nuclear SOX9 intensity”, Nc1ccc(S(=O)(=O)Nc2ncccn2)cc1 is recorded as 93.7 % of DMSO.
CC(C)(C)NS(=O)(=O)c1cncc(-c2cc(F)c3nc(N)nn3c2)c1: “nuclear SOX9 intensity” 94 % of DMSO.

Set 4
Organism: Sarcocystis neurona
Observed: parasite activity
Tested at: 10 µM
Time: 96 h
CC(=O)OCC(=O)[C@@]1(O)CC[C@H]2[C@@H]3C[C@H](C)C4=CC(=O)C=C[C@]4(C)[C@H]3[C@@H](O)C[C@@]21C — result for activity class: “inactive”.
O=C(NCCN1CCOCC1)c1ccc(Cl)cc1 — result for activity class: “inactive”.
For COc1cc([C@@H]2c3cc4c(cc3[C@H](O)[C@H]3COC(=O)[C@H]23)OCO4)cc(OC)c1OC, activity class read “inactive”.
CNS(=O)(=O)Cc1ccc2[nH]cc(CCN(C)C)c2c1: activity class “inactive”.
O=C1c2cccc3c2[C@H](CCC3)CN1[C@@H]1CN2CCC1CC2: activity class “inactive”.
Under activity class, COC(=O)C1=C(C)NC(C)=C(C(=O)OCCN(C)Cc2ccccc2)C1c1cccc([N+](=O)[O-])c1 (stereo not shown) is recorded as “inactive”.
Under activity class, CNC(=C[N+](=O)[O-])NCCSCc1ccc(CN(C)C)o1 is recorded as “inactive”.
Under activity class, COc1ccc2c(c1)c(CC(=O)O)c(C)n2C(=O)c1ccc(Cl)cc1 is recorded as “inactive”.
Under activity class, C[C@@H](O)[C@H]1C(=O)N2C(C(=O)O)=C(S[C@@H]3CN[C@H](C(=O)N(C)C)C3)[C@H](C)[C@H]12 is recorded as “inactive”.
CCCCCCNC(=O)n1cc(F)c(=O)[nH]c1=O — result for activity class: “active”.
CCCNC(=O)NS(=O)(=O)c1ccc(Cl)cc1 — result for activity class: “inactive”.

Some of these lines once more (set 2):
For 5-hydroxytryptamine receptor 1E (HTR1E, Homo sapiens, UniProt P28566); cell-free assay: inhibition read 1.27%.
The inhibition was -1% (5-hydroxytryptamine receptor 1B (HTR1B, Homo sapiens, UniProt P28222); binding, radioligand binding).
It gave 14.9% for inhibition (Alpha-2A adrenergic receptor (ADRA2A, Homo sapiens, UniProt P08913); binding, radioligand binding).
It gave 16.1% for inhibition (Muscarinic acetylcholine receptor M5 (CHRM5, Homo sapiens, UniProt P08912); binding, radioligand binding).
For Sigma non-opioid intracellular receptor 1 (SIGMAR1, Homo sapiens, UniProt Q99720); binding, radioligand binding: inhibition read 53%.
Histamine H3 receptor (HRH3, Homo sapiens, UniProt Q9Y5N1); binding, radioligand binding — inhibition: 10.4%.
